Measured values gathered from unrelated publications.
Each line is one published result; not all experiments were run side by side. Numbers after ± are the reported error.

| SMILES | tested on | assay | test system | setting | how to read | measurement | value |
| --- | --- | --- | --- | --- | --- | --- | --- |
| Cc1nc2cccc(OCC(C)(C)C(=O)NC(C)C)c2c(N)c1C(=O)[O-].[Na+] | Salmonella typhimurium | – | TA98 | 0.32 mg per plate, without S9, preincubation | – | revertant colonies per plate | 26 ± 2 |
| C[C@H](O)[C@@H](NC(=O)[C@H]1CCCN1C(=O)[C@@H](CCCCN)NC(=O)[C@@H](CO)NC(=O)[C@@H](Cc1ccc(O)cc1)NC(=O)[C@@H](CC(N)=O)NC(=O)CCOCCOCCOCCNC(=O)CN1CCN(CC(=O)O)CCN(CC(=O)O)CCN(CC(=O)O)CC1)C(=O)N[C@H](CC(=O)O)C(=O)N[C@H](CCCNC(=N)N)C(=O)N[C@H](CCC(N)=O)C(=O)N[C@H](Cc1ccc(O)cc1)C(=O)N[C@H](Cc1c[nH]cn1)C(=O)N[C@H](Cc1ccccc1)C(N)=O [gallium-68 labelled] | – | – | BALB/c nude mice U-87 MG tumour, pancreas | intravenous, 1.85 MBq, 0.08333 h, radiolabelled | – | tissue uptake | 1.88 ± 0.28 %ID/g |
| CCCC[C@H]1C(=O)N(C)[C@@H](CCCC)C(=O)N[C@@H](CCCNC(=O)CN2CCN(CC(=O)O)CCN(CC(=O)O)CCN(CC(=O)O)CC2)C(=O)N[C@H](C(=O)NCC(N)=O)CSCC(=O)N[C@@H](Cc2ccc(O)cc2)C(=O)N(C)[C@@H](C)C(=O)N[C@@H](CC(N)=O)C(=O)N2CCC[C@H]2C(=O)N[C@@H](Cc2c[nH]cn2)C(=O)N[C@@H](CC(C)C)C(=O)N(C)CC(=O)N[C@@H](Cc2c[nH]c3ccccc23)C(=O)N[C@@H](CO)C(=O)N[C@@H](Cc2c[nH]c3ccccc23)C(=O)N1C [gallium-68 labelled] | – | – | NOD/SCID mice with CHO-hPD-L1 xenograft, kidney | 30 min post injection | – | tissue uptake | 24.3 ± 0.73 %ID/g |
| CC[C@H](C)[C@H](NC(=O)[C@H](CCCNC(=N)N)NC(=O)[C@H](CCCCN)NC(=O)[C@H](Cc1ccc(O)cc1)NC(=O)[C@H](CC(=O)O)NC(=O)[C@H](C)NC(=O)CNC(=O)CCOCCOCCOCCNC(=O)CN1CCN(CC(=O)O)CCN(CC(=O)O)CCN(CC(=O)O)CC1)C(=O)N[C@H](C(=O)N[C@@H](CC(C)C)C(=O)N[C@@H](CCCCN)C(=O)N[C@H](C(=O)N[C@@H](CC(N)=O)C(N)=O)C(C)C)[C@@H](C)O [copper-64 labelled] | – | ex vivo gamma counting | male C57BL/6J mouse, B16-F10 tumour, B16-F10 tumour | intravenous, 1.85 MBq, 20 min | – | tissue uptake | 4.47 ± 1.56 %ID/g |
| O=C1NC2(CC2)COc2ncc(F)cc2[C@H]2COCCN2c2ccn3ncc1c3n2 | – | – | Sprague-Dawley rat, female, serum | oral, 10 mg/kg/day, end of treatment, 4-week subacute toxicity | – | serum triglycerides | 0.46 ± 0.18 mmol/L |
| CN1Cc2cc(Cl)ccc2-n2c(nnc2C2CCN(c3cccc([18F])n3)CC2)C1 | – | – | C57BL/6 mouse male, muscle | intravenous, 3.7 MBq, 60 min | – | tissue uptake | 1.87 ± 0.49 %ID/g |
| CC[C@H](C)[C@H](NC(=O)[C@H](CO)NC(=O)[C@H](Cc1ccc(O)cc1)NC(=O)[C@H](Cc1ccc(O)cc1)NC(=O)[C@H](CC(N)=O)NC(=O)CNC(=O)[C@H](CO)NC(=O)[C@H](Cc1ccc(O)cc1)NC(=O)[C@H](CO)NC(=O)[C@H](CO)NC(=O)[C@H](CC(N)=O)NC(=O)COCCOCCNC(=O)CN1CCN(CC(=O)O)CCN(CC(=O)O)CCN(CC(=O)O)CC1)C(=O)N[C@@H](CC(C)C)C(N)=O [copper-64 labelled] | – | dynamic PET | mouse, tamoxifen-induced PDAC, blood | intravenous, 0.1 µg/mouse, 3.5 min | – | tumour uptake | 12 %ID/mL |
| CC(C)C[C@@H](NC(=O)[C@@H](CCCNC(=N)N)NC(=O)[C@@H](Cc1c[nH]cn1)NC(=O)[C@@H](Cc1c[nH]c2ccccc12)NC(=O)[C@@H](Cc1c[nH]cn1)NC(=O)[C@@H](Cc1ccccc1)NC(=O)[C@H](NC(=O)[C@@H](Cc1ccc(O)cc1)NC(=O)CNC(=O)CNC(=O)CCOCCOCCOCCNC(=O)CN1CCN(CC(=O)O)CCN(CC(=O)O)CC1)[C@H](C)O)C(=O)N[C@H](CC(N)=O)C(=O)N1CCC[C@@H]1C(=O)O [gallium-68 labelled] | – | gamma counting | C57BL/6 mice, male, pancreas | intravenous, 1.85 MBq, 60 min | – | tissue uptake | 0.55 ± 0.31 %ID/g |
| COc1ccccc1-c1n[nH]c2nc(NC3CCN(C(=O)Cc4ccc(F)cc4F)CC3)ncc12 | – | bead binding, competition bead pull-down, measured: LINJ.08.1220 | Leishmania donovani extract | 10 µM | baseline: vehicle | relative abundance | 0.96 |
| CC[C@H](C)[C@H](NC(=O)[C@H](CCCCN)NC(=O)CNC(=O)[C@H](CC(C)C)NC(=O)[C@H](Cc1ccccc1)NC(=O)[C@H](CCCCN)NC(=O)[C@H](CO)NC(=O)[C@H](Cc1ccccc1)NC(=O)[C@H](Cc1c[nH]c2ccccc12)NC(=O)[C@H](CCC(N)=O)NC(=O)[C@@H](NC(=O)[C@H](Cc1ccccc1)NC(=O)CCCCCNC(=O)CN1CCN(CC(=O)O)CCN(CC(=O)O)CCN(CC(=O)O)CC1)C(C)C)C(=O)N[C@@H](CCC(=O)O)C(=O)N1CCC[C@H]1C(=O)N[C@@H](CC(=O)O)C(=O)N[C@H](C(=O)N[C@@H](CO)C(=O)N[C@@H](CCC(N)=O)C(=O)N[C@H](C(=O)N[C@@H](CCC(N)=O)C(=O)N[C@@H](CC(=O)O)C(=O)N1CCC[C@H]1C(=O)N[C@@H](CC(N)=O)C(=O)N[C@@H](CC(=O)O)C(=O)N[C@@H](CCC(N)=O)C(=O)N[C@@H](Cc1ccc(O)cc1)C(=O)N[C@@H](CCC(=O)O)C(=O)N1CCC[C@H]1C(=O)N[C@@H](Cc1ccccc1)C(=O)O)C(C)C)C(C)C [copper-64 labelled] | – | – | GZMB-/- mice, CT26 tumour-bearing, small intestine | 2 h, checkpoint inhibitor-treated | – | tissue uptake | 5.47 ± 1.1 %ID/g |
| CSCC[C@H](NC(=O)CNC(=O)[C@H](CCCCN)NC(=O)[C@H](CC(C)C)NC(=O)[C@@H]1CCCN1C(=O)[C@H](CO)NC(=O)[C@H](Cc1c[nH]cn1)NC(=O)[C@H](Cc1c[nH]c2ccccc12)NC(=O)[C@H](CCCNC(=N)N)NC(=O)[C@H](CC(C)C)NC(=O)[C@H](CCCNC(=N)N)NC(=O)[C@H](Cc1c[nH]c2ccccc12)NC(=O)[C@H](CS)NC(=O)CCCCCNC(=O)CN1CCN(CC(=O)O)CCN(CC(=O)O)CCN(CC(=O)O)CC1)C(=O)O [copper-64 labelled] | – | ex vivo biodistribution | male C57BL/6J mice, bone | intravenous, 1.85 MBq, 30 h, B16-F10 tumour-bearing | – | tissue uptake | 1.21 %ID/g |
| CC[C@H](C)[C@H](NC(=O)[C@H](CCCNC(=N)N)NC(=O)[C@H](CCCCN)NC(=O)[C@H](Cc1ccc(O)cc1)NC(=O)[C@H](CC(=O)O)NC(=O)[C@H](C)NC(=O)CNC(=O)CCOCCOCCOCCNC(=O)CN1CCN(CC(=O)O)CCN(CC(=O)O)CCN(CC(=O)O)CC1)C(=O)N[C@H](C(=O)N[C@H](C(=O)N[C@@H](CCCCN)C(=O)N[C@H](C(=O)N[C@@H](CC(N)=O)C(N)=O)C(C)C)C(C)C)[C@@H](C)O [copper-64 labelled] | – | ex vivo gamma counting | male C57BL/6J mouse, B16-F10 tumour, B16-F10 tumour | intravenous, 1.85 MBq, 100 min | – | tissue uptake | 1.49 ± 0.058 %ID/g |

A few entries again:
| SMILES | tested on | assay | test system | setting | how to read | measurement | value |
| --- | --- | --- | --- | --- | --- | --- | --- |
| C[C@H](O)[C@@H](NC(=O)[C@H]1CCCN1C(=O)[C@@H](CCCCN)NC(=O)[C@@H](CO)NC(=O)[C@@H](Cc1ccc(O)cc1)NC(=O)[C@@H](CC(N)=O)NC(=O)CCOCCOCCOCCNC(=O)CN1CCN(CC(=O)O)CCN(CC(=O)O)CCN(CC(=O)O)CC1)C(=O)N[C@H](CC(=O)O)C(=O)N[C@H](CCCNC(=N)N)C(=O)N[C@H](CCC(N)=O)C(=O)N[C@H](Cc1ccc(O)cc1)C(=O)N[C@H](Cc1c[nH]cn1)C(=O)N[C@H](Cc1ccccc1)C(N)=O [gallium-68 labelled] | – | – | BALB/c nude mice U-87 MG tumour, pancreas | intravenous, 1.85 MBq, 0.08333 h, radiolabelled | – | tissue uptake | 1.88 ± 0.28 %ID/g |
